Experimental data collected from several papers.
Every numbered part comes from another study and shows a few of its results, in no order.

Set 1 — method: protein binding microarray; molecule type: double-stranded DNA, one strand shown; matrix: in vitro; concentration: not given; baseline: not given; reading: higher = stronger binding
Target: Histone acetyltransferase KAT6A, winged helix 2, GST fusion (KAT6A, Homo sapiens, UniProt Q92794, residues 85-181)
Notes: 8-mer, flanks averaged, mean of 2 arrays, mostly near background
Construct (chain): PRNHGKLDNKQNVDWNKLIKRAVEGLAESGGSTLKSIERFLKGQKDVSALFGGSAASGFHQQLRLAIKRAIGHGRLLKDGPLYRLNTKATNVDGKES
Strand | E-score
CAAGTCAG | 0.0043
CCGGACGC | 0.149
CACCGGAG | 0.00875
ACTTAGAC | 0.0386
ATCCATGC | 0.118
ACCAGCGC | 0.00675
GAGAACTA | -0.11
AAACTATA | -0.0894
TATTAAGA | 0.107

Set 2 — method: RNA Bind-n-Seq; molecule type: RNA; matrix: in vitro; concentration: 365 nM; baseline: no-protein control; reading: higher = stronger binding
Target: RNA binding protein fox-1 homolog 2, RRM domain, GST-SBP tag (RBFOX2, Homo sapiens, UniProt O43251-10, residues 100-194)
Notes: natural RNA segment, single round, ends assumed
All sequences stand within: GGGAGUUCUACAGUCCGACGAUC … UGGAAUUCUCGGGUGCCAA
Construct (chain): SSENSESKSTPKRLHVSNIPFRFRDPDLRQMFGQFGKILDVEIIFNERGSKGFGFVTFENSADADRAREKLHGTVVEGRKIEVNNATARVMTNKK
Strand | RBNS enrichment (R)
CGGGAAAGCGUCCUGUCGGCUGGCCAUGCUGUUGCUUGCGUCUCGAAUCUUCGGUUCUCGAGGAAGUGUUGACAGUGUGAUGCUAAUGUCUGCUUUUCUUGGCGUUGGGU | 1.19
GACUACAGGCACACACCAGUACCACUCAGUCUUGUGCAGUGCUGGGGAUGAGCCCAGGGUUUCAUGCAUGCCAGCAAACAUUCUACUAUCUGAGCAAUGUCCCCAGUGUC | 2.05
GCUAGAGGGGUGUGUGGUAGGUCGAUAAGACUGUGCCAGUGCCUGCGGAACCAACACACCCUGCUGCCAGCUCCUCCAGCCACAGGCAUGGGACACUAAGCCGGGUCAUG | 1.09
GUGUUUGAAUGAAAACAACACGAAGGCUCAAUAUCACAUGGAUUUCCCAGUUUCUGUCUUUAAUAAGGCUUUCCUACAAGCCACUAUUUUCCAUGGGGCACUCACUCAGA | 1.14
AGGAGGCAAAGCAGCUAUGGAAGGGCUUUUGCUGGUUAAUCAUUUCUGAGGUGAAAGACCUUCUUCUCAGGGGGCAGGCUCCACCAGGAAUGGAGGAUCAAUCGCUGUAA | 1.04
UUGGUACUUUUCCCGGAAACUAUGUCAAAAGGCUUGACUCACCUCACUCCUACUUUAUGCCACAUUUCAGCCACACAUCUGCAUUAACCCACCUGAAACAUCCCAGCAGG | 1.73
GAGAUGAUUCGAAGGGCCUUUCACUUUUAUUAAACAGUGACUUGUUUGACUGUGCUCCCUGGUCCUGUGAGGGCUUCAGUGCCCCACCCCUGGGCCACUUCUGCAGCUCC | 0.253
GAAGCUGGGUCUGUAAGGAUUCACACAAUGGCAAGACUGAGGAUUUAUACUGAAUUGUCAUCAAUCAGUCCUACCAGAUGGAUUUCAACAUUUAAACCUGGAGACUCUUC | 0.183

Set 3 — method: RNA Bind-n-Seq; molecule type: RNA; matrix: in vitro; concentration: 200 nM; notes: whole 134-nt RNA, ends assumed; together with: 150 mM KCl; baseline: input library; reading: higher = stronger binding
Target: Fragile X messenger ribonucleoprotein 1, C-terminal low-complexity region (Fmr1, Mus musculus, UniProt P35922)
Strand | log2 enrichment
GGGAGUUCUACAGUCCGACGAUCCACAGACAACACGCACCCACACAGACACAGAGGGAAGGGGUUGGGAUGGGGACAGGGUGCACAGCAGUGCGGGGUAGGACCCCAGCCCCUUGGAAUUCUCGGGUGUCAAGG | 1.31
GGGAGUUCUACAGUCCGACGAUCCACAGACAACACGCACCAACACAGACACAGAGGGAAGGGGUUGGGAUGGGGACAGGGUGCACAGCAGGGCGGGGUAGGACCCCAGCCCCUUGGAAUUCUCGGGUGUCAAGG | 1.26
GGGAGUUCUACAGUCCGACGAUCAGUCCUGUGCUACACAUCGUAUGUACCGAAUCGGCCCCCGGCCCCCGGGGCCCCCGGGAAAGUAUUAUGUUACGCCGUUCGGAUCUGCACUGGAAUUCUCGGGUGUCAAGG | -0.787
GGGAGUUCUACAGUCCGACGAUCCCUGUGCUACACAUCGUAUGUACCGAAUCGGGGUUUUUGGGGAAAAAAAGGGGAAAGGGGAAAGUAUUAUGUUACGCCGUUCGGAUCUGCUGGAAUUCUCGGGUGUCAAGG | 0.266

Other studies, line by line
Molecule | target | test | test system | conditions | how to read | measurement | result
PhoQ, residues 284 288 289 292 302 303 GNNTDL | PhoP, residues 12 14 15 18 19 NMSFL (Escherichia coli, UniProt P23836) | Sort-seq, refers to: YFP reporter | E. coli | PhoQ-PhoP variant library, together with: 10 µM Mg2+ | baseline: high Mg2+ state, higher = stronger signaling | fold induction | 3.27

For quick reference, copied from above (set 2):
Strand | RBNS enrichment (R)
GACUACAGGCACACACCAGUACCACUCAGUCUUGUGCAGUGCUGGGGAUGAGCCCAGGGUUUCAUGCAUGCCAGCAAACAUUCUACUAUCUGAGCAAUGUCCCCAGUGUC | 2.05
